Published values gathered from unrelated publications.
Parts stem from different laboratories: compare values within a part only. Positions count from the first letter of the parent shown.

Block 1 — target: CCNB3, cyclin fold, Cln2 fusion (human); method: yeast growth competition, sequencing; medium: yeast; setting: weak parent motif; reference: not given; direction: higher = stronger binding; measurement: normalised enrichment score
Starting sequence: SLBP docking peptide (human); ARYKRKLLINDFG; partner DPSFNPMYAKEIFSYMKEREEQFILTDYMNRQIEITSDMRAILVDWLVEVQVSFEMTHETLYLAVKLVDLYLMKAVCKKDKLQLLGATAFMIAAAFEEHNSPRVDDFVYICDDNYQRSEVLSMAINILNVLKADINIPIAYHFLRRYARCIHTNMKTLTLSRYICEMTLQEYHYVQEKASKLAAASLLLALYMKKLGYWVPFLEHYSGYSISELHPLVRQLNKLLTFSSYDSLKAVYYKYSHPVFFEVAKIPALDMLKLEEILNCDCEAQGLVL
N10P: 0.191
Y3H: 0.0765
K4Q: 0.229
R5G: 0.22
N10A: 0.131

Block 2 — method: protein binding microarray; form: double-stranded DNA, one strand shown; medium: in vitro; tested at: not given; reference: not given; direction: higher = stronger binding; measurement: E-score
Target: Histone acetyltransferase KAT6A, winged helix 1, GST fusion (KAT6A, Homo sapiens, UniProt Q92794, residues 1-85)
Setting: 8-mer, flanks averaged, mean of 2 arrays, mostly near background
Construct (chain): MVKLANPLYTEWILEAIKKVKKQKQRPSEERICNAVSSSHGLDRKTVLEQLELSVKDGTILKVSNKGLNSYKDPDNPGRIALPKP
CACGAGAA: -0.219
AGTGTGAA: -0.207
AACCAGCA: -0.333
AAGAGTGG: -0.141
AGAAGAAA: -0.186

Block 3 — method: RNA Bind-n-Seq; form: RNA; medium: in vitro; tested at: not given; setting: RNA with constant flanks, ends assumed; reference: input RNA pool; direction: higher = stronger binding; measurement: bound/input enrichment
Target: RING finger protein unkempt homolog, zinc fingers 1-6, GST-SBP tag (UNK, Homo sapiens, UniProt Q9C0B0, residues 30-357)
UniProt Q9C0B0, sequence (30-357, looked up): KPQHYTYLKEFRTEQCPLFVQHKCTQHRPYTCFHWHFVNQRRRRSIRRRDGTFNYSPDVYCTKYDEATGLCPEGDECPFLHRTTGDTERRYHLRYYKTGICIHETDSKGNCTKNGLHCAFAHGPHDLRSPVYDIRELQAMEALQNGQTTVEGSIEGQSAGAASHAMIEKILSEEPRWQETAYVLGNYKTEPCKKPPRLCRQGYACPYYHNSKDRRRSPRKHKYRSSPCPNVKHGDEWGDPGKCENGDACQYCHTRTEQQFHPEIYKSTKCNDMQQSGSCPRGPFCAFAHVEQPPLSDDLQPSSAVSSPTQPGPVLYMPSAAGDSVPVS
Shared flanks, not repeated: GGGAGUUCUACAGUCCGACGAUC … CAACAGAGGAUUGAGCAUCA
GAAGAAGGCUGCUUUGCGUUUGUUUUUAAGACGUUAACAUUAUUUUUUUGGUUGUACUGCACCCGGAAAUCUCUCCUACCCCUCCUUUUCUCUUCUCUCCCUAGAUAAAAAUAAAAGGCC: 5.36 ratio
GAAAUGGCAACCACAGAGGAUGCUCAGGCCGCAGUGGAUUAUUACACAACCACACCAGCGUCCGUAUUUGGCAAGCCAGUGAGAGUUCAUUUAUCCCAGAAGUAUAAAAGAAUAAAGAAA: 0.502 ratio
UAGAUUGUAUCGCUAAUUUUUACUUUUUAAAAAUUCAUUUAUGUGUGUAUUGUUUGCAUGUCCGGUGUGGGUAUGUGCAGACUAGAGGACUGUGGGAAUCACUUGGAGGUAGUUAUUACA: 3.41 ratio
CAUGGCUGUGCUGGUCGUUCUCCUGUUCUUUCUGGUGGCGGGUGCUUUAGGGAAUGAAUUCCGCAUAUUAAGAUCGCCAGGGUCUGUUGUUUUCCGAAAUGGAAAUUGGCCUAUACCAGG: 0.286 ratio
CUGUCUGAUAUCAUGGUCUCGCUGGCAAAUGCUUCAACCUUACAGAAUGAUUCCAGUUGGACCGAAACAAUAAGGAAGUUUGUGACGGAGACCCUUAAAGGUGGCACUAGAUUGAACAGU: 0.36 ratio
GCACAUGAUUUGGGAAUUACACUUUGUGACAUGGAUGAAUCUGCACUGACCCUUGGUACAACCGAUGUUUCUUAUCUGCCACAUUCAUCAGAAUACAGUGUUGGUCGAUGUAAGCACACA: 0.579 ratio

Other studies, line by line
PhoQ, residues 284 288 289 292 302 303 TAVSDG — fold induction (PhoP, residues 12 14 15 18 19 HLGGL (Escherichia coli, UniProt P23836); Sort-seq, refers to: YFP reporter; E. coli; PhoQ-PhoP variant library, with: 10 µM Mg2+; reference: high Mg2+ state, higher = stronger signaling): 1.04

Repeated from above (block 3):
UAGAUUGUAUCGCUAAUUUUUACUUUUUAAAAAUUCAUUUAUGUGUGUAUUGUUUGCAUGUCCGGUGUGGGUAUGUGCAGACUAGAGGACUGUGGGAAUCACUUGGAGGUAGUUAUUACA: 3.41 ratio
